Measurements collected from several papers.
Lines come from different studies, so protocols differ. Numbers after ± are the reported error.

For `Cc1ccc(Nc2c3c(nc4ccccc24)CCCC3)cc1`, the inhibition was 59.6 ± 2.44% (HepG2; MTT; 50 µM, 24 h, 10% FBS).
`CCCN(CCC)CC1=C(O)C(=O)c2ccccc2C1=O`: “median lethal concentration” 2080 ± 316 µM (HepG2; MTT; 10% FCS; 24 h).
For `COc1ccc2[nH]cc(CCNS(=O)(=O)CCc3cn(-c4cnc5ccccc5c4)nn3)c2c1`, the viability was 71% (HepG2; MTT; 50 µM).
For `CC(C)CCC1=C(O)C(=O)c2ccccc2C1=O`, the CC50 was 60 µM (HepG2; cell growth or viability, MTT; 72 h).
The remaining peptide of `N=C(N)NCCC[C@H](NC(=O)[C@@H]1CCCN1C(=O)[C@H](CC(N)=O)NC(=O)[C@H](Cc1ccccc1)NC(=O)[C@H](Cc1c[nH]cn1)NC(=O)[C@H](Cc1ccccc1)NC(=O)[C@H](Cc1ccccc1)NC(=O)Cc1ccc2ccccc2c1)C(=O)O` is reported as 44% (HepG2; cell lysate; 200 µM, 1 h, with: bortezomib 100 nM).
The inhibition of `CC1CCc2nc3ccccc3c(Nc3ccc4ccccc4n3)c2C1` (stereo not drawn) is reported as 77.3 ± 2.53% (HepG2; MTT; 50 µM, 24 h, 10% FBS).
For `CC[C@@H](C)[C@@H](NC(=O)[C@@H](C)NC(=O)[C@H](NC(=O)[C@@H](CC(=O)O)NC(=O)[C@@H](CCCCN)NC(=O)[C@@H](CO)NC(=O)[C@H](NC(=O)[C@@H](CC(N)=O)NC(=O)[C@@H](C)NC(=O)[C@H](NC(=O)[C@@H](CCC(=O)O)NC(=O)[C@@H](CCCCN)NC(=O)[C@H](NC(=O)[C@H](NC(=O)[C@@H](Cc1c[nH]cn1)NC(=O)[C@@H](CCCCN)NC(=O)[C@H](NC(=O)[C@@H](CCCCN)NC(=O)[C@@H](CCCCN)NC(=O)[C@H](NC(=O)[C@@H](CC(C)C)NC(=O)[C@@H](CCCCN)NC(=O)[C@@H](CC(N)=O)NC(=O)[C@@H](Cc1ccccc1)NC(=O)[C@@H](CCCNC(=N)N)NC(=O)[C@@H](CCCCN)NC(=O)[C@@H](CCCNC(=N)N)NC(=O)[C@@H](Cc1ccccc1)NC(=O)CN)C(C)C)C(C)C)[C@H](C)O)[C@H](C)CC)[C@H](C)O)C(C)C)C(C)C)C(=O)N[C@@H](C(=O)N[C@H](C)C(=O)NCC(=O)N[C@H](CO)C(=O)NCC(=O)N[C@@H](C(=O)N[C@H](C)C(=O)N[C@@H](C(=O)NCC(=O)N[C@H](C)C(=O)N[C@H](C)C(=O)N[C@H](CCSC)C(N)=O)C(C)C)C(C)C)C(C)C`, the no-observed-effect concentration was 433 mg/L (HepG2; cytotoxicity, refers to: intracellular ATP).
`CCNCC1=C(O)C(=O)c2ccccc2C1=O`: “median lethal concentration” no less than 4320 µM (HepG2; MTT; 10% FCS; 24 h).
The CC50 of `O=C(CCNC(=O)c1ccc(OC(F)(F)F)cc1)N[C@@H]1CCCc2ccccc21` is reported as 16 µM (HepG2; cell growth or viability, MTT; 72 h).
`Cc1cc(O)c2c(C(=O)[O-])[n+]3n(c2c1)CCCC3` has a viability of 78.4% (HepG2; cell growth or viability, CCK-8; 30 µM, 24 h).
`CC(=O)N[C@@H](CC(=O)O)C(=O)N[C@@H](CCC(=O)O)C(=O)N[C@H](C(=O)N[C@@H](CC(=O)O)C(=O)NCC(=O)NCC(=O)NCC(=O)NCCNC(=O)OCC1c2ccccc2-c2ccccc21)C(C)C` gave an apoptotic level of 14% (HepG2; western blot, refers to: cleaved PARP; 400 µM, 72 h; reference: 10 µM camptothecin).
`CC(C)=CCC/C(C)=C/CNCCOC1C2CC3CC(C2)CC1C3` (stereo not drawn) has a CC50 of 1 µg/mL (HepG2; cell growth or viability).
`CC(=O)N[C@@H](CC(=O)O)C(=O)N[C@@H](CCC(=O)O)C(=O)N[C@@H](CC(=O)O)C(=O)N[C@H](C(=O)NCC(=O)NCC(=O)NCC(=O)NCCNC(=O)OCC1c2ccccc2-c2ccccc21)C(C)C` has a metabolized fraction of 37.1% (HepG2; 200 µM, 2 h, 37 °C).
`O=C1C(O)=C(Nc2ccc(Cl)cc2)C(=O)c2ccccc21` gave a CC50 of 320 µM (HepG2; cell growth or viability, MTT; 72 h).
`Cc1cccnc1Nc1c2c(nc3ccccc13)CCCC2` gave an inhibition of 2.51 ± 0.11% (HepG2; MTT; 50 µM, 24 h, 10% FBS).
The CC50 of `O=C1C(O)=C(Nc2cccc(C(F)(F)F)c2)C(=O)c2ccccc21` is reported as 180 ± 30 µM (HepG2; cytotoxicity, MTT; 72 h, 10% FBS).
`CC(C)(CO)NCC1=C(O)C(=O)c2ccccc2C1=O` — result for “median lethal concentration”: 188 ± 34.7 µM (HepG2; MTT; 10% FCS; 24 h).
The inhibition of `FC(F)(F)c1ccc(Nc2c3c(nc4ccccc24)CCCC3)cc1` is reported as -0.52 ± 0.16% (HepG2; MTT; 50 µM, 24 h, 10% FBS).
For `CC(C)=CCC/C(C)=C/CC/C(C)=C/CNCCOC1C2CC3CC(C2)CC1C3` (stereo not drawn), the CC50 was 9.4 µg/mL (HepG2; cell growth or viability).
`Cc1cccc(Nc2c3c(nc4ccccc24)CCC(C)C3)n1` (stereo not drawn) has an inhibition of -29.2 ± 0.33% (HepG2; MTT; 50 µM, 24 h, 10% FBS).
`O=C(Cc1ccc2ccccc2c1)N[C@H](Cc1c[nH]c2ccccc12)C(=O)N[C@H](Cc1c[nH]c2ccccc12)C(=O)N[C@H](Cc1ccc(OP(=O)(O)O)cc1)C(=O)O` gave a viability of roughly 60% (HepG2; MTT; 400 µM, 3 days).
With `Cc1ccnc(Nc2c3c(nc4ccc(Cl)cc24)CCCC3)c1` the inhibition was -22.9 ± 0.74% (HepG2; MTT; 50 µM, 24 h, 10% FBS).
`O=C1C(O)=C(CN2CCCC2)C(=O)c2ccccc21`: “median lethal concentration” no less than 3890 µM (HepG2; MTT; 10% FCS; 24 h).
With `COc1ccc(Nc2c3c(nc4ccccc24)CCC(C)C3)nc1` (stereo not drawn) the inhibition was -10.9 ± 0.34% (HepG2; MTT; 50 µM, 24 h, 10% FBS).
For `CC[C@H](C)[C@H](NC(=O)[C@H](CCC(N)=O)NC(=O)[C@@H](NC(=O)[C@H](CO)NC(=O)CNC(=O)CNC(=O)CNC(=O)[C@@H]1CCCN1C(=O)[C@@H](NC(=O)[C@H](Cc1c[nH]cn1)NC(=O)[C@H](CCCCN)NC(=O)[C@H](CCCCN)NC(=O)CNC(=O)CNC(=O)CNC(=O)[C@@H](N)CSC1CC(=O)N(c2ccc3c(c2)C(=O)OC32c3ccc(N(C)C)cc3Oc3cc(N(C)C)ccc32)C1=O)C(C)C)C(C)C)C(=O)N[C@H](C(=O)N[C@@H](Cc1ccc(O)cc1)C(=O)N[C@@H](CCCCN)C(=O)N1CCC[C@H]1C(=O)N[C@H](C(=O)N[C@@H](CC(=O)O)C(=O)N[C@@H](CC(C)C)C(=O)O)C(C)C)C(C)C` (stereo partly drawn), cellular uptake read “inhibited” (HepG2; confocal microscopy; 10 µM, 3 h, 4 °C; reference: 37 °C).
With `O=C(c1ccc(Nc2c3c(nc4ccccc24)CCCC3)cc1)C1CC1` the inhibition was 35 ± 1.54% (HepG2; MTT; 50 µM, 24 h, 10% FBS).
For `COc1cc(C(=O)NCCOCCOCCOCCNC(=O)c2ccc([18F])nc2)ccc1NC(=O)C1NC(CC(C)(C)C)C(C#N)(c2ccc(Cl)cc2F)C1c1cccc(Cl)c1F` (stereo not drawn), the tracer uptake was 2.14 %ID/g (HepG2 tumour model; host not given, liver; 2 h, tumour-bearing).

Repeated from above:
For `COc1ccc2[nH]cc(CCNS(=O)(=O)CCc3cn(-c4cnc5ccccc5c4)nn3)c2c1`, the viability was 71% (HepG2; MTT; 50 µM).
For `CC(C)CCC1=C(O)C(=O)c2ccccc2C1=O`, the CC50 was 60 µM (HepG2; cell growth or viability, MTT; 72 h).
